# Measurements collected from several papers.
# Compare with care: the assays were run in different laboratories. Numbers after ± are the reported error.
# Target: Muscarinic acetylcholine receptor M1 (CHRM1, Homo sapiens, UniProt P11229)
# Residues used in one study (P11229 1-460): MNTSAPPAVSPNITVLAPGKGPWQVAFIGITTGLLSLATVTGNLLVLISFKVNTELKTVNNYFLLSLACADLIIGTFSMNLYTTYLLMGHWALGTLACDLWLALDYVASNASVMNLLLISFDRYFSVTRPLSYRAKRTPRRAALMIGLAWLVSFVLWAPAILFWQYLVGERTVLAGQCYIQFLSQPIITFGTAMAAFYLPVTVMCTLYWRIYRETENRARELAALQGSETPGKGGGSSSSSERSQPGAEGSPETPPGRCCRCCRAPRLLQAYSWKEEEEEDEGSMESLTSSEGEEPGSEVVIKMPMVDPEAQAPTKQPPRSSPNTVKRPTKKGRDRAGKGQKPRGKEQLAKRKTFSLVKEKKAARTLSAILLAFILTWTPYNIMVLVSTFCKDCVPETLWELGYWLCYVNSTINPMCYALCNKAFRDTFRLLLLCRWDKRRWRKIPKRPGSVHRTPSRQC
Structure (SMILES),test,system,setting,how to read,endpoint,result
C[Si](C)(C)C[C@H](CN)CC(=O)O,"ligand displacement, radioligand",,250 µM,,inhibition,23%
CNC(=O)C[C@H](Cc1ccc(C#N)cc1)NC(=O)c1cc(-c2ccc(CN[C@H](C)c3ccc(C)cc3)o2)ccc1Cl,"agonist response, antagonist",human cells,"10 µM, M1 antagonist",,inhibition,44%
Brc1ccccc1-c1nnc(CSc2nnnn2-c2ccccc2)o1,"ligand displacement, radioligand",,10 µM,,inhibition,-15%
COc1ccc(S(=O)(=O)N2CCc3ccccc3C2)cc1N1CCN(C(=O)c2ccc(F)cc2C(F)(F)F)CC1,cell-free assay,,1 µM,,inhibition,0.8%
CCCCOc1ccc(C(=O)OCCN2CC=CCC2)cc1,,membranes,"10 µM, 15 h, no carbachol",reference: control,basal binding,0.83 ± 0.02 fold
Cc1[nH]nc2c1N=C(c1ccccc1Cl)c1cnc(N3CCOCC3)cc1N2,cell-free assay,,10 µM,,inhibition,2%
C=CCn1c(=O)c2ccccc2n2c(SCC(=O)NC3CC3)nnc12,"receptor activation, agonist",,"concentration not given, 16 h",,Emax,123 ± 8%
CCCCCCOc1ccc(C(=O)OCC[N+]2(C)CC=CCC2)cc1 (centres unmarked),,membranes,"1 µM, 15 h, with: carbachol",reference: control,Emax,1.65 ± 0.06 fold
C=CCn1c(=O)c2ccccc2n2c(SCC(=O)NCc3ccc(NC(C)=O)cc3)nnc12,"receptor activation, agonist",,"concentration not given, 16 h",,Emax,143 ± 5%
COCC(=O)N1CCc2cc(-c3csc(NC(=O)c4cc(OC)cc(OC)c4)n3)ccc21,"ligand displacement, radioligand",,10 µM,,inhibition,11%
CCCCCCOc1ccc(C(=O)OCCN2CC=CCC2)cc1,,membranes,"10 µM, 15 h, no carbachol",reference: control,basal binding,1.06 ± 0.03 fold
Cn1ccc2cc(-n3c(=O)[nH]c4sc5c(c4c3=O)CCCC5)ccc21,"cell-free assay, radioligand",,10 µM,,inhibition,-14%
C=CCn1c(=O)c2ccccc2n2c(SCC(=O)Nc3ccc(NC(C)=O)cc3)nnc12,"receptor activation, agonist",,"concentration not given, 16 h",,Emax,142 ± 12%
O=C1c2sc(-c3ccc(N4CCC(F)C4)nc3F)nc2CCN1c1cccnc1 (centres unmarked),"ligand displacement, radioligand",,1 µM,,inhibition,3%

# A few entries again:
Structure (SMILES),test,system,setting,how to read,endpoint,result
C=CCn1c(=O)c2ccccc2n2c(SCC(=O)NC3CC3)nnc12,"receptor activation, agonist",,"concentration not given, 16 h",,Emax,123 ± 8%
